Results gathered from unrelated publications.
± gives the spread as reported.
U2AF2: U2AF2 148-342 (Homo sapiens, UniProt P26368)
UniProt P26368, sequence (whole entry, looked up): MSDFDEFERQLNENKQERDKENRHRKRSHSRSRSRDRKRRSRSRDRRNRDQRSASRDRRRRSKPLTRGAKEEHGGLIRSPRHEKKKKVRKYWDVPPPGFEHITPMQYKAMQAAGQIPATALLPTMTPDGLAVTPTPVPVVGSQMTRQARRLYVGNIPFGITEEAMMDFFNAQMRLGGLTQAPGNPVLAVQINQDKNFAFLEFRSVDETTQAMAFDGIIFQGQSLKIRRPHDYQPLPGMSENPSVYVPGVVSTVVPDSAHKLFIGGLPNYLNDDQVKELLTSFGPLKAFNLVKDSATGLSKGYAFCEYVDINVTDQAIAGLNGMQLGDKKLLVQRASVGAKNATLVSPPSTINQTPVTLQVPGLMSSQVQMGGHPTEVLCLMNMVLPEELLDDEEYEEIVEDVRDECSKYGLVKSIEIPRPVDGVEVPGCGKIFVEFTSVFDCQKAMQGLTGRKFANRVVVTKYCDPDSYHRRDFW
B1: NINJ2 (Homo sapiens, UniProt Q9NZG7); sequence looked up; chain MESARENIDLQPGSSDPRSQPINLNHYATKKSVAESMLDVALFMSNAMRLKAVLEQGPSSHYYTTLVTLISLSLLLQVVIGVLLVVIARLNLNEVEKQWRLNQLNNAATILVFFTVVINVFITAFGAHKTGFLAARASRNPL
B2: ADAR1 127-end 127-1226 D1023A (human, UniProt P55265); sequence looked up; chain SSHFQELSIYQDQEQRILKFLEELGEGKATTAHDLSGKLGTPKKEINRVLYSLAKKGKLQKEAGTPPLWKIAVSTQAWNQHSGVVRPDGHSQGAPNSDPSLEPEDRNSTSVSEDLLEPFIAVSAQAWNQHSGVVRPDSHSQGSPNSDPGLEPEDSNSTSALEDPLEFLDMAEIKEKICDYLFNVSDSSALNLAKNIGLTKARDINAVLIDMERQGDVYRQGTTPPIWHLTDKKRERMQIKRNTNSVPETAPAAIPETKRNAEFLTCNIPTSNASNNMVTTEKVENGQEPVIKLENRQEARPEPARLKPPVHYNGPSKAGYVDFENGQWATDDIPDDLNSIRAAPGEFRAIMEMPSFYSHGLPRCSPYKKLTECQLKNPISGLLEYAQFASQTCEFNMIEQSGPPHEPRFKFQVVINGREFPPAEAGSKKVAKQDAAMKAMTILLEEAKAKDSGKSEESSHYSTEKESEKTAESQTPTPSATSFFSGKSPVTTLLECMHKLGNSCEFRLLSKEGPAHEPKFQYCVAVGAQTFPSVSAPSKKVAKQMAAEEAMKALHGEATNSMASDNQPEGMISESLDNLESMMPNKVRKIGELVRYLNTNPVGGLLEYARSHGFAAEFKLVDQSGPPHEPKFVYQAKVGGRWFPAVCAHSKKQGKQEAADAALRVLIGENEKAERMGFTEVTPVTGASLRRTMLLLSRSPEAQPKTLPLTGSTFHDQIAMLSHRCFNTLTNSFQPSLLGRKILAAIIMKKDSEDMGVVVSLGTGNRCVKGDSLSLKGETVNDCHAEIISRRGFIRFLYSELMKYNSQTAKDSIFEPAKGGEKLQIKKTVSFHLYISTAPCGDGALFDKSCSDRAMESTESRHYPVFENPKQGKLRTKVENGEGTIPVESSDIVPTWAGIRLGERLRTMSCSDKILRWNVLGLQGALLTHFLQPIYLKSVTLGYLFSQGHLTRAICCRVTRDGSAFEDGLRHPFIVNHPKVGRVSIYDSKRQSGKTKETSVNWCLADGYDLEILDGTRGTVDGPRNELSRVSKKNIFLLFKKLCSFRYRRDLLRLSYGEAKKAARDYETAKNYFKKGLKDMGYGNWISKPQEEKNFYLCPV
B3: human zyxin; sequence looked up; chain AAPRPSPAISVSVSAPAFYAPQKKFGPVVAPKPKVNPFRPGDSEPPPAPGAQRAQMGRVGEIPPPPPEDFPLPPPPLAGDGDDAEGALGGAFPPPPPPIEESFPPAPLEEEIFPSPPPPPEEEGGPEAPIPPPPQPREKVSSIDLEIDSLSSLLDDMTKNDPFKARVSSGYVPPPVATPFSSKSSTKPAAGGTAPLPPWKSPSSSQPLPQVPAPAQSQTQFHVQPQPQPKPQVQLHVQSQTQPVSLANTQPRGPPASSPAPAPKFSPVTPKFTPVASKFSPGAPGGSGSQPNQKLGHPEALSAGTGSPQPPSFTYAQQREKPRVQEKQHPVPPPAQNQNQVRSPGAPGPLTLKEVEELEQLTQQLMQDMEHPQRQNVAVNELCGRCHQPLARAQPAVRALGQLFHIACFTCHQCAQQLQGQQFYSLEGAPYCEGCYTDTLEKCNTCGEPITDRMLRATGKAYHPHCFTCVVCARPLEGTSFIVDQANRPHCVPDYHKQYAPRCSVCSEPIMPEPGRDETVRVVALDKNFHMKCYKCEDCGKPLSIEADDNGCFPLDGHVLCRKCHTARAQT
B4: STV1/VPH1 chimera 1-132 (Saccharomyces cerevisiae); sequence looked up; chain MNQEEAIFRSADMTYVQLYIPLEVIREVTFLLGKMSVFMVMDLNKDLTAFQRGYVNQLRRFDEVERMVGFLNEVVEKHAAETWKYILHIDDEGNDIAQPDMADLINTMEPLSLENVNDMVKEITDCESRARQMEDATDQIEVQKNDLEQYRFILQSGDEFFLKGDNTDSTSYMDEDMIDANGENIAAAIGASVNYVTGVIARDKVATLEQILWRVLRGNLFFKTVEIEQPVYDVKTREYKHKNAFIVFSHGDLIIKRIRKIAESLDANLYDVDSSNEGRSQQLAKVNKNLSDLYTVLKTTSTTLHTELLVIHDQLPVWSAMTKREKYVYTTLNKFQQESQGLIAEGWVPSTELIHLQDSLKDYIETLGSEYSTVFNVIL
B5: SPOP K134N (Homo sapiens, UniProt O43791); sequence looked up; chain MSRVPSPPPPAEMSSGPVAESWCYTQIKVVKFSYMWTINNFSFCREEMGEVIKSSTFSSGANDKLKWCLRVNPKGLDEESKDYLSLYLLLVSCPKSEVRAKFKFSILNAKGEETKAMESQRAYRFVQGKDWGFNKFIRRDFLLDEANGLLPDDKLTLFCEVSVVQDSVNISGQNTMNMVKVPECRLADELGGLWENSRFTDCCLCVAGQEFQAHKAILAARSPVFSAMFEHEMEESKKNRVEINDVEPEVFKEMMCFIYTGKAPNLDKMADDLLAAADKYALERLKVMCEDALCSNLSVENAAEILILADLHSADQLKTQAVDFINYHASDVLETSGWKSMVVSHPHLVAEAYRSLASAQCPFLGPPRKRLKQS
B6: FZO1 truncated 83-493 D216R (Saccharomyces cerevisiae, UniProt P38297); chain ISSQLSQWNYNNNRVLLKRSILKTQAFMDQLQEENNIRPIFIAANDEREKLHVLQLNIKLDGQYNTKEKNGFNIEKKALSKLFHSQIVSVTNHLNALKKRVDDVSSKVFITGDVNTGKSALCNSLLKQRLLPERQLPCTNVFSEILEARENDGIEEVHAIPLNIAPTLKEAIDMYSIQNPKTYEIHTLKELPDLVPQNGKYALLKIYIKDDKRPASTSLLRNGTVDISLIDSPGLNMDSLQTAEVMSRQEEIDLVIFVVNAENQLTLSAKEFISLASREKKLMFFVVKKFDKIRDKQRCKELILKQIRDLSPETYKRAADFVHFVSKNGDELPHYHNENDNEDHGDRKPDDDPYSSSDPDPDFDSLEDSLRNFVLKKRSLSKLLPAKTYLSKLLSDIIMISKSNMKMYSEEGSGSGSGGSTKKELENKKESNLLSIKFFQSLYEGTVAQKLMVEEINLDID
B7: ELAVL1 2-99 (Homo sapiens, UniProt Q15717); sequence looked up; chain SNGYEDHMAEDCRGDIGRTNLIVNYLPQNMTQDELRSLFSSIGEVESAKLIRDKVAGHSLGYGFVNYVTAKDAERAINTLNGLRLQSKTIKVSYARPS
B8: SPOP E47A (Homo sapiens, UniProt O43791); sequence looked up; chain MSRVPSPPPPAEMSSGPVAESWCYTQIKVVKFSYMWTINNFSFCREAMGEVIKSSTFSSGANDKLKWCLRVNPKGLDEESKDYLSLYLLLVSCPKSEVRAKFKFSILNAKGEETKAMESQRAYRFVQGKDWGFKKFIRRDFLLDEANGLLPDDKLTLFCEVSVVQDSVNISGQNTMNMVKVPECRLADELGGLWENSRFTDCCLCVAGQEFQAHKAILAARSPVFSAMFEHEMEESKKNRVEINDVEPEVFKEMMCFIYTGKAPNLDKMADDLLAAADKYALERLKVMCEDALCSNLSVENAAEILILADLHSADQLKTQAVDFINYHASDVLETSGWKSMVVSHPHLVAEAYRSLASAQCPFLGPPRKRLKQS
B9: sufS 1-406 (Escherichia coli, UniProt P77444); chain MIFSVDKVRADFPVLSREVNGLPLAYLDSAASAQKPSQVIDAEAEFYRHGYAAVHRGIHTLSAQATEKMENVRKRASLFINARSAEELVFVRGTTEGINLVANSWGNSNVRAGDNIIISQMEHHANIVPWQMLCARVGAELRVIPLNPDGTLQLETLPTLFDEKTRLLAITHVSNVLGTENPLAEMITLAHQHGAKVLVDGAQAVMHHPVDVQALDCDFYVFSGHKLYGPTGIGILYVKEALLQEMPPWEGGGSMIATVSLSEGTTWTKAPWRFEAGTPNTGGIIGLGAALEYVSALGLNNIAEYEQNLMHYALSQLESVPDLTLYGPQNRLGVIAFNLGKHHAYDVGSFLDNYGIAVRTGHHCAMPLMAYYNVPAMCRASLAMYNTHEEVDRLVTGLQRIHRLLG
B10: Gm4951 F194A (Mus musculus, UniProt Q3UED7); sequence looked up; chain MGQLFSSRRSEDQDLSSSFIEYLKECEKGINIIPHEIITSIEINMKKGNIQEVNSTVRDMLREIDNTPLNVALTGETGSGKSSFINTLRGIGHEEGGAAHTGVTDKTKERHPYEHPKMPNVVFWDLPGTGSEDFQPKTYLEKMKFYEYDFFIIISATRFKKNDIDLAKAIGIMKKEFYFVRTQVDSDLRNEEDAKPQTFDREKVLQDIRLNCVNTFRENGIAEPPIFLISNKNVCHYDFPVLMDKLISDLPVFKRQNFMFSLPNITDSVIEKKRNFLRWKTWLEGFADGLLSFFLESDLETLEKSMKFYRTVFGVDDASLQRLARAWEIDQVDQVRAMIKSPAVFTPTDEETIQERLSRYNQEFCLANGYLLPKNHCREILYLKLYFLDMVTEDAKTLLKEICLRN
B11: dlg1 1-97 Q26A/D27A (Drosophila melanogaster, UniProt P31007); sequence looked up; chain MPVKKQEAHRALELLEDYHARLSEPAARALRIAIERVIRIFKSRLFQALLDIQEFYELTLLDDSKSIQQKTAETLQIATKWEKDGQAVKIADFIKSS
UniProt Q08345, sequence (whole entry, unmodified, looked up): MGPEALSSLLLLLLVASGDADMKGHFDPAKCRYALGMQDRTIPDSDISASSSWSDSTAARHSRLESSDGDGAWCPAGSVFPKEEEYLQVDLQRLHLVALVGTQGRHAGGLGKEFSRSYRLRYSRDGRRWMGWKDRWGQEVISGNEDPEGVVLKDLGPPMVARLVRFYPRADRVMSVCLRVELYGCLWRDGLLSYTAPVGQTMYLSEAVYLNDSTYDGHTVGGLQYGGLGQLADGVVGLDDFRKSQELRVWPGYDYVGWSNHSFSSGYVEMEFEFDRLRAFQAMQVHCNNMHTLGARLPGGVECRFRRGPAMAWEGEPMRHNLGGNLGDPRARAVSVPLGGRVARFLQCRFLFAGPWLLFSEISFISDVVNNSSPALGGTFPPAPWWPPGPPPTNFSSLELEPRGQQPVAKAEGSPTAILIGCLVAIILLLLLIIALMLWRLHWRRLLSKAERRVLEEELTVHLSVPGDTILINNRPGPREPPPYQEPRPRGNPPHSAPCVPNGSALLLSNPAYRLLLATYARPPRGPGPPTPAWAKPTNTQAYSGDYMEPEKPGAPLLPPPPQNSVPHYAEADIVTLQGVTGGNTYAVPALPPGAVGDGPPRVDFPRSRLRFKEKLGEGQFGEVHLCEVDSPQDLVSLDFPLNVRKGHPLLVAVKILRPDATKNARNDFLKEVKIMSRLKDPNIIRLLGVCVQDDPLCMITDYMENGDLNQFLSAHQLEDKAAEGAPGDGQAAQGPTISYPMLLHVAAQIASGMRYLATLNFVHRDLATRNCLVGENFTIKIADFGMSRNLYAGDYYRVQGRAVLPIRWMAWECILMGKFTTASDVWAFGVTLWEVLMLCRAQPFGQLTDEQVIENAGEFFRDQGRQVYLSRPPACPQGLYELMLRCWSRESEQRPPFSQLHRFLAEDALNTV
UniProt Q9ERH6, sequence (whole entry, looked up): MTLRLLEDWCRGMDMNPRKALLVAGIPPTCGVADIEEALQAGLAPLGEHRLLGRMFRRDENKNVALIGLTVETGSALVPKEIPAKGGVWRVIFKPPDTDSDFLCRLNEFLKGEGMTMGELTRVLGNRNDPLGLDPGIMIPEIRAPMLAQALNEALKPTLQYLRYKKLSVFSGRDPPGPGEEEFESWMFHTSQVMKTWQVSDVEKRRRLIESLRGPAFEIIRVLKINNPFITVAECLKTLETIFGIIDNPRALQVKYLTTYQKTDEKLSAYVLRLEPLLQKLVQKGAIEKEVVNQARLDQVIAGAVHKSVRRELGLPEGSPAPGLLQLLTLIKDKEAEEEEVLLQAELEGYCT
UniProt P13393, sequence (whole entry, looked up): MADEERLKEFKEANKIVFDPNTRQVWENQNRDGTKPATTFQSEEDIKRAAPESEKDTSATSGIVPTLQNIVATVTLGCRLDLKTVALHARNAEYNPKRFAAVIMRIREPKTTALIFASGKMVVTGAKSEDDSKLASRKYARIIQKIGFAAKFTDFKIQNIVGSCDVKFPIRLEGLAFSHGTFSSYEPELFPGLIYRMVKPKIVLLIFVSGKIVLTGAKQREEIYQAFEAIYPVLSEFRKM

`GCAAAUCCU (ssRNA)` has a Kd of 180 nM (U2AF2; sequencing of bound RNA; RNA; motif only).
`Pnma4 (Mus musculus, UniProt Q9ERH6)`: binding “binds” (itself; size-exclusion chromatography, negative-stain TEM).
With `AUCCUACUU (ssRNA)` the Kd was 380 nM (U2AF2; sequencing of bound RNA; RNA; motif only).
Under binding, `B1 (NINJ2)` is recorded as “binds” (itself; SEC, 2D cryo-EM classification).
`B2 (ADAR1 127-end 127-1226 D1023A)`: binding “binds” (itself; SEC).
`ATGATGTCCTTTTCCAAAAACGCCACTCCTAGAGCTCAAGTCAATCGGTCC (dsDNA; 5'-amino-C6 primer)` gave a Kd of 32 ± 2.9 nM (SPT15 full length assumed (Saccharomyces cerevisiae, UniProt P13393); array; double-stranded DNA, one strand shown; TBP alone).
`B3 (human zyxin)` — result for “log2 fold change”: -0.56 (CYB5R4 knockout human cells; PP4 interaction, 3xFLAG-PP4C IP-MS; concentration not given; baseline: CYB5R4 KO over parental).
`MDKVQYLTRSAIRRASTIEMPQQARQNLQNLFINFCLILICLLLICIIVMLL (PLN (Sus scrofa, UniProt P61013); sequence looked up)`: binding “binds” (itself; immunoblot SDS-PAGE).
`B4 (STV1/VPH1 chimera 1-132)`: binding “binds” (itself; SEC).
`AFSSFN (DNAJB8 residues 147-152 (Homo sapiens))`: binding “binds” (itself; crystal structure; peptide; pH 7.5).
`B5 (SPOP K134N)`: binding “binds” (itself; negative-stain TEM).
`B6 (FZO1 truncated 83-493 D216R)`: binding “binds” (itself; SEC).
Under binding, `B7 (ELAVL1 2-99)` is recorded as “binds” (itself; ITC).
For `B8 (SPOP E47A)`, binding read “binds” (itself; negative-stain TEM).
Under binding, `GSPTAILIGSLVAIILLLLLIIALVLWRLHWRR (DDR1 413-445 C422S/M437V (Homo sapiens, UniProt Q08345); sequence looked up)` is recorded as “binds” (itself; SDS-PAGE).
For `B9 (sufS 1-406)`, binding read “binds” (itself; crystal structure).
`B10 (Gm4951 F194A)`: binding “binds” (itself; mass photometry).
`human MEP50`: “log2 fold change” -0.65 (CYB5R4 knockout human cells; PP6 interaction, 3xFLAG-PP6C IP-MS; concentration not given; baseline: CYB5R4 KO over parental).
Under binding, `B11 (dlg1 1-97 Q26A/D27A)` is recorded as “binds” (itself; SEC).

A few entries again:
`B3 (human zyxin)` — result for “log2 fold change”: -0.56 (CYB5R4 knockout human cells; PP4 interaction, 3xFLAG-PP4C IP-MS; concentration not given; baseline: CYB5R4 KO over parental).
`MDKVQYLTRSAIRRASTIEMPQQARQNLQNLFINFCLILICLLLICIIVMLL (PLN (Sus scrofa, UniProt P61013); sequence looked up)`: binding “binds” (itself; immunoblot SDS-PAGE).
`B4 (STV1/VPH1 chimera 1-132)`: binding “binds” (itself; SEC).
